{"data": "Assay results gathered from unrelated publications", "note": "Each numbered part is a random draw from the data of one study; scales do not carry over between parts."}
{"data": "Study 1", "cell line": "HEK-293T/ACE2", "tested at": "concentration not given", "time": "16 (unit not given)", "reference": "vehicle"}
{"Structure (SMILES)": "CCCCC(=O)O[C@]1(C(=O)CO)CC[C@H]2[C@@H]3CCC4=CC(=O)CC[C@]4(C)[C@H]3[C@@H](O)C[C@@]21C", "viability": "102%"}
{"Structure (SMILES)": "O=P(O)(O)C(O)(Cn1ccnc1)P(=O)(O)O", "viability": "94.3%"}
{"Structure (SMILES)": "C=C1C[C@@H]2[C@H](CC[C@]3(C)C(=O)CC[C@@H]23)[C@@]2(C)C=CC(=O)C=C12", "viability": "103%"}
{"Structure (SMILES)": "CC(=O)O[C@]1(C(C)=O)CC[C@H]2[C@@H]3CCC4=CC(=O)CCC4=C3[C@@H](c3ccc(N(C)C)cc3)C[C@@]21C", "viability": "99.4%"}
{"data": "Study 2", "target": "Replicase polyprotein 1ab, main protease (rep, Severe acute respiratory syndrome coronavirus 2, UniProt P0DTD1)", "observed": "enzyme activity", "mode": "inhibitor", "tested at": "20 µM", "notes": "primary screen"}
{"Compound": "Cc1sc(N)c(C(=O)c2cccc(C(F)(F)F)c2)c1C", "inhibition": "53.6%"}
{"Compound": "CNS(=O)(=O)C[C@H]1CC[C@H](N(C)c2ncnc3[nH]ccc23)CC1", "inhibition": "54.1%"}
{"Compound": "C=CCNC(=O)c1cc([N+](=O)[O-])cc2c(=O)[nH]c(Nc3ccc(Cl)c(Cl)c3)nc12", "inhibition": "34.7%"}
{"Compound": "CN(C)CCCCC(=O)Nc1ccc(NC(=S)NC(=O)c2ccc(C(C)(C)C)cc2)cc1", "inhibition": "32.9%"}
{"data": "Study 3", "target": "RING finger protein unkempt homolog, zinc fingers 1-6, GST-SBP tag (UNK, Homo sapiens, UniProt Q9C0B0, residues 30-357)", "technique": "RNA Bind-n-Seq", "form": "RNA", "matrix": "in vitro", "tested at": "not given", "notes": "RNA with constant flanks, human and mouse sites, ends assumed", "reference": "input RNA pool", "direction": "higher = stronger binding", "shared flanks, not repeated": "GGGAGUUCUACAGUCCGACGAUC … CAACAGAGGAUUGAGCAUCA", "Construct (chain)": "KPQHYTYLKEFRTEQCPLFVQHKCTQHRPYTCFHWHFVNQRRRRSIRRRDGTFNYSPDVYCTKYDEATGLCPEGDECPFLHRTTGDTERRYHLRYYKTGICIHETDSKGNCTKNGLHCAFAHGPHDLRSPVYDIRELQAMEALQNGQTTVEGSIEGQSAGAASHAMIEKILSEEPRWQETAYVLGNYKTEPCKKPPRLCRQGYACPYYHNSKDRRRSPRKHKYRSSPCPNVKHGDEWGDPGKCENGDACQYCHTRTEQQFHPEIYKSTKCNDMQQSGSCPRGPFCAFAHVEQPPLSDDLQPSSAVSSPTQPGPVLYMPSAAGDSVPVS"}
{"Sequence": "UCCAAGAGAUAACUUCACCAAGAUGUCCAGUGAUAGGCAAAGGUCCGAUGAUGAGAGCCCCAGCACCAGCAGUGGCAGUUCAGAUGCGGACCAGCGAGACCCAGCCGCUCCAGAGCCUGA", "bound/input enrichment": "0.0997 ratio"}
{"Sequence": "GAACCUUGGGUGAUUUGUUCUGUAUCAGAAGACAAUAUCAUGCAAGUGUGGCAAAUGGAGUUAGUCCUUGACCACUAGUUUGAUGCCAUCUCCAUUUUGGGUGACCUGUUUCACCAGCAG", "bound/input enrichment": "0.558 ratio"}
{"Sequence": "CCCUGUACCCGAAGAUGAGACACCCAUGUCCUUUCCCUCGGUCACAGGUAGCACCUUGGAUGUCACUCAUGUCUCUCGGGAACCUCACUUUUGAGUGUUAAUGAGCCCCUAAGUGCUGUU", "bound/input enrichment": "0.14 ratio"}
{"Sequence": "GGCUGUGGACCGGGCGGCACGCACGCGGUGCAGGGUAACAUGGCGGAUGCGGAAGUAAUUAUUUUGCCAAAGAAACAUAAGAAGAAAAAGGAGCGGAAGUCAUUGCCAGAAGAAGAUGUA", "bound/input enrichment": "0.479 ratio"}
{"Sequence": "GACAAAGCCUUCCAGAAAGAGAUAGGCCUCAAGACUCUGGUGUUCAAAGCUUACAGGUGUUUUUUCAUUGCUCAGUCCUAUGUGCUGGUGAAGAAGUGGAGCGAAGCCCUUGUCCUGUAU", "bound/input enrichment": "0.246 ratio"}
{"Sequence": "GCUUCUUCUGCCAGUGCUGAAUUCUUCGCUGACAUUGCCCUGGCUCCUAUGGAAGCUGCUAAAGUUCGAAUUCAAACCCAGCCUGGUUAUGCCAACACCUUGAGGGAAGCUGUUCCCAAA", "bound/input enrichment": "0.0722 ratio"}
{"Sequence": "AUUAGACUUCGGUUAGAGAACUGUGAAGAUCGGCUGAUUAGACAGAUUCGAACUCCCCUGGAAAGAGAUGAUUUGCAUGAAAGUGUGUUCAGAAUCACAGAACAGGAGAAACUAAAGAAA", "bound/input enrichment": "0.387 ratio"}
{"Sequence": "GAGCUGCAGGAUAUGAUCAACGAAGUGGAUGCUGAUGGCAAUGGCACCAUUGACUUCCCAGAGUUCUUGACUAUGAUGGCUAGAAAAAUGAAAGACACAGAUAGCGAAGAAGAGAUCCGC", "bound/input enrichment": "0.264 ratio"}
{"data": "Study 4", "target": "Replicase polyprotein 1ab, polymerase (rep, Severe acute respiratory syndrome coronavirus 2, UniProt P0DTD1)", "observed": "enzyme activity", "mode": "inhibitor", "tested at": "20 µM"}
{"Compound": "NC(=O)CN1C=CCC(C(N)=O)=C1", "inhibition": "4.94%"}
{"Compound": "Cc1cnc(NC(=O)c2cc(Oc3cnc(C(=O)N(C)C)nc3)c3cc(C)oc3c2)cn1", "inhibition": "-0.94%"}
{"Compound": "c1ccc(-c2cnn3cc(-c4ccc(OCCN5CCOCC5)cc4)cnc23)cc1", "inhibition": "1.21%"}
{"Compound": "Cn1c(=O)cc(N2CCC[C@@H](N)C2)n(Cc2cc(F)ccc2C#N)c1=O", "inhibition": "-3.82%"}
{"Compound": "Cc1ccccc1OCC(O)CNCCOc1ccc(C(N)=O)cc1 (stereo not drawn)", "inhibition": "0.11%"}
{"Compound": "CS(=O)(=O)CS(=O)(=O)OCCCl", "inhibition": "2.31%"}
{"Compound": "CC(=O)OC[C@H]1O[C@@](COC(C)=O)(O[C@H]2O[C@H](COC(C)=O)[C@@H](OC(C)=O)[C@H](OC(C)=O)[C@H]2OC(C)=O)[C@@H](OC(C)=O)[C@@H]1OC(C)=O", "inhibition": "-4.2%"}
{"Compound": "CNC(=O)c1cnn(-c2nc(N)c3ncn([C@@H]4O[C@H](CO)[C@@H](O)[C@H]4O)c3n2)c1", "inhibition": "2.85%"}
{"Compound": "Nc1ccn([C@H]2CC[C@@H](CO)O2)c(=O)n1", "inhibition": "-7.76%"}
{"Compound": "NCC(=O)N[C@@H](CCC(N)=O)C(=O)O", "inhibition": "-4.74%"}
{"Compound": "O=C(O)Cn1c2c(c3cc(F)ccc31)CN(C(=O)c1cccc3ccccc13)CC2", "inhibition": "-1.67%"}
{"Compound": "Nc1nc(=O)n([C@@H]2CS[C@H](CO)O2)cc1F", "inhibition": "-1.64%"}
{"Compound": "Oc1ccc(Cl)c2cccnc12", "inhibition": "-12.7%"}
{"Compound": "COC[C@H](NC(=O)c1cnc(C)s1)C(=O)N[C@@H](COC)C(=O)N[C@@H](Cc1ccccc1)C(=O)[C@@]1(C)CO1", "inhibition": "-7.24%"}
{"Compound": "C[C@H]1O[C@@H](n2cc(F)c(=O)[nH]c2=O)[C@H](O)[C@@H]1O", "inhibition": "17.3%"}
{"Compound": "CN(CCOc1ccc(NS(C)(=O)=O)cc1)CCc1ccc(NS(C)(=O)=O)cc1", "inhibition": "1.09%"}
{"Compound": "FC(F)(F)Oc1ccc2nc(-c3ccc(OCCOCCOc4ccc(-c5nc6ccc(OC(F)(F)F)cc6[nH]5)nc4)cn3)[nH]c2c1", "inhibition": "7.6%"}
{"Compound": "NCCCCCc1c[nH]cn1", "inhibition": "-9.74%"}
{"Compound": "CCNC(C)CN1CCc2c(c(=O)oc3ccccc23)C1 (stereo not drawn)", "inhibition": "-0.68%"}
{"Compound": "C=C(C)[C@@H]1CCC(C)=C[C@H]1c1c(OC)cc(C)cc1OC", "inhibition": "-4.54%"}
{"Compound": "COc1c(O)cc2c(c1O)[C@@H]1O[C@H](CO)[C@@H](O)[C@H](O)[C@H]1OC2=O", "inhibition": "9.41%"}
{"data": "Study 5", "target": "Histone acetyltransferase KAT6A, both winged helices, GST fusion (KAT6A, Homo sapiens, UniProt Q92794, residues 1-181)", "technique": "protein binding microarray", "form": "double-stranded DNA, one strand shown", "matrix": "in vitro", "tested at": "not given", "notes": "8-mer, flanks averaged, mean of 2 arrays, mostly near background", "reference": "not given", "direction": "higher = stronger binding", "Residues (chain)": "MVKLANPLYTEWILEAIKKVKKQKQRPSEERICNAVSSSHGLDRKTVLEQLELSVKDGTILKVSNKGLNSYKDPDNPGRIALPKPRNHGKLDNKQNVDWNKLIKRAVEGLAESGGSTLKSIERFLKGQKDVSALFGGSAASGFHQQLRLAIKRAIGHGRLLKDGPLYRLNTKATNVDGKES"}
{"Sequence": "TACTTCTA", "E-score": -0.114}
{"Sequence": "CTCGCCAC", "E-score": 0.00258}
{"Sequence": "GTATTTTA", "E-score": -0.0246}
{"Sequence": "AGACGAGC", "E-score": -0.00992}
{"Sequence": "TCTTAGAA", "E-score": 0.00826}
{"Sequence": "GCGCGCAC", "E-score": 0.391}
{"Sequence": "CTGGCAGC", "E-score": -0.0737}
{"Sequence": "ATCCATGG", "E-score": -0.101}
{"note": "Some of these lines once more (study 5):"}
{"Sequence": "CTGGCAGC", "E-score": -0.0737}
{"Sequence": "CTCGCCAC", "E-score": 0.00258}
{"Sequence": "TACTTCTA", "E-score": -0.114}
